Results collected from several papers.
Each numbered part is a random draw from the data of one study; scales do not carry over between parts. Values joined by “and” are separate records of one study, mostly repeats; a detail may differ.
Chain of UniProt Q16566 (whole entry, looked up): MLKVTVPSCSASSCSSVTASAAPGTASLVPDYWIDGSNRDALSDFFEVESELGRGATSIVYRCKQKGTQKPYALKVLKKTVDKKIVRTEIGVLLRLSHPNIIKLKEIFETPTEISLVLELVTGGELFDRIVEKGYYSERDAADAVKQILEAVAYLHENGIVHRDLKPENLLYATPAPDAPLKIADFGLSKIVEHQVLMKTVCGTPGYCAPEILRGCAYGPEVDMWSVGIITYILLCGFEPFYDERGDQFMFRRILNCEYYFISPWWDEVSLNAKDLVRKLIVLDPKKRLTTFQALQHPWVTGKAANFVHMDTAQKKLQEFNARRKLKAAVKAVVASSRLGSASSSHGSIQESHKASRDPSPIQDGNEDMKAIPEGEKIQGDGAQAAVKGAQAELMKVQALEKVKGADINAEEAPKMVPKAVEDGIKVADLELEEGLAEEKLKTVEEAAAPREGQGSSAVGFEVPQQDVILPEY
Chain of UniProt P28482 (whole entry, looked up): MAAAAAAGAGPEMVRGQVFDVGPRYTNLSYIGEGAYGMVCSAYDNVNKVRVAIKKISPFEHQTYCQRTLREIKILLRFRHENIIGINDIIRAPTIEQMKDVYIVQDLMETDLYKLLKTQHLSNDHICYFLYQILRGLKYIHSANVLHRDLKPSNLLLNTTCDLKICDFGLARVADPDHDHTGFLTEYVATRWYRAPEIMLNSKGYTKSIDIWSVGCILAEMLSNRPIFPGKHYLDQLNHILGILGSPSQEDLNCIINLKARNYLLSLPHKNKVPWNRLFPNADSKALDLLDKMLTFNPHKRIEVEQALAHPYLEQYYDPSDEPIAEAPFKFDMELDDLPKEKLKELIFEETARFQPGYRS
Chain of UniProt Q9BQI3 (whole entry, looked up): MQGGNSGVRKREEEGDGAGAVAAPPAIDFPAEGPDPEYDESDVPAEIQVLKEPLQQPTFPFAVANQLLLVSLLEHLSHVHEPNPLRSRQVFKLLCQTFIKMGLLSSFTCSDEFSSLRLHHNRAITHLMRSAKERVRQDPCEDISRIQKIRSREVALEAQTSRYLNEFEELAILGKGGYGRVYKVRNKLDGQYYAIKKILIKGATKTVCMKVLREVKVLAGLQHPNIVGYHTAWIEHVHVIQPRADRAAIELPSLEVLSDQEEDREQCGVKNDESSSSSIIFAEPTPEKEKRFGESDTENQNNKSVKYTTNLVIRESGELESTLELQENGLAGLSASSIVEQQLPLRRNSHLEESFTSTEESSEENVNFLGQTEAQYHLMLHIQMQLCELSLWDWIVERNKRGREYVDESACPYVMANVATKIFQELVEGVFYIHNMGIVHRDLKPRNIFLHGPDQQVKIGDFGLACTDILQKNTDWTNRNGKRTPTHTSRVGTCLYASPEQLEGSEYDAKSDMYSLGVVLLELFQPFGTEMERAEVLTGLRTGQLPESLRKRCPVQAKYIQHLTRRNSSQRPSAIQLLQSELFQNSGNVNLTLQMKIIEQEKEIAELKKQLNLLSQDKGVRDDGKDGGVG
Chain of UniProt Q9H4B4 (whole entry, looked up): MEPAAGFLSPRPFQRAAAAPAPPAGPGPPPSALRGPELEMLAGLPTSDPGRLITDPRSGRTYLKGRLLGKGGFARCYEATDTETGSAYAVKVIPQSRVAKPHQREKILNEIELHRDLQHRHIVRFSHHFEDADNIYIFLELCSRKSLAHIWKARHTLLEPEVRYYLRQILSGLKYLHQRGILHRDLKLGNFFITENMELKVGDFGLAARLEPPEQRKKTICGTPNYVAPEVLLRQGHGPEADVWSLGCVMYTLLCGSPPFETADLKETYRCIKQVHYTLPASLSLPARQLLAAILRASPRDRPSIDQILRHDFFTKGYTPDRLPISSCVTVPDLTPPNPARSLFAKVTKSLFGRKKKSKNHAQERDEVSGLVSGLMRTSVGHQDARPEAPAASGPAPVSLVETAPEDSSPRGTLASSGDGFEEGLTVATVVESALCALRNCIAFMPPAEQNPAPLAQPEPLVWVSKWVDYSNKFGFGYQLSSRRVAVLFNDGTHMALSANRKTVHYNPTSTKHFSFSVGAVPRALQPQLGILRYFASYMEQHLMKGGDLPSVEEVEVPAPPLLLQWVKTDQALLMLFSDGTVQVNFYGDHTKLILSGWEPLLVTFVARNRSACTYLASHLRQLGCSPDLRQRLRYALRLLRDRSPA
Chain of UniProt P11309 (whole entry, looked up): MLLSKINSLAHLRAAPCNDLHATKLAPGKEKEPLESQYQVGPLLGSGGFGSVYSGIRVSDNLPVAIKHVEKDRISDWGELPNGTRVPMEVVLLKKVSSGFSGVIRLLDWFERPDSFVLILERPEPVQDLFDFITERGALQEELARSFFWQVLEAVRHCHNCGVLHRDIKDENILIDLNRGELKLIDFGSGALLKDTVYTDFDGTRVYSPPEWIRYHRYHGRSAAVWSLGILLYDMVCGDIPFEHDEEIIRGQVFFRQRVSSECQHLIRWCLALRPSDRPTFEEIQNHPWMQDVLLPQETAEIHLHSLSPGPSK

Sample 1
Target: DNA polymerase theta, ATPase domain (POLQ, Homo sapiens, UniProt O75417)
Chain of UniProt O75417 (whole entry, unmodified, looked up): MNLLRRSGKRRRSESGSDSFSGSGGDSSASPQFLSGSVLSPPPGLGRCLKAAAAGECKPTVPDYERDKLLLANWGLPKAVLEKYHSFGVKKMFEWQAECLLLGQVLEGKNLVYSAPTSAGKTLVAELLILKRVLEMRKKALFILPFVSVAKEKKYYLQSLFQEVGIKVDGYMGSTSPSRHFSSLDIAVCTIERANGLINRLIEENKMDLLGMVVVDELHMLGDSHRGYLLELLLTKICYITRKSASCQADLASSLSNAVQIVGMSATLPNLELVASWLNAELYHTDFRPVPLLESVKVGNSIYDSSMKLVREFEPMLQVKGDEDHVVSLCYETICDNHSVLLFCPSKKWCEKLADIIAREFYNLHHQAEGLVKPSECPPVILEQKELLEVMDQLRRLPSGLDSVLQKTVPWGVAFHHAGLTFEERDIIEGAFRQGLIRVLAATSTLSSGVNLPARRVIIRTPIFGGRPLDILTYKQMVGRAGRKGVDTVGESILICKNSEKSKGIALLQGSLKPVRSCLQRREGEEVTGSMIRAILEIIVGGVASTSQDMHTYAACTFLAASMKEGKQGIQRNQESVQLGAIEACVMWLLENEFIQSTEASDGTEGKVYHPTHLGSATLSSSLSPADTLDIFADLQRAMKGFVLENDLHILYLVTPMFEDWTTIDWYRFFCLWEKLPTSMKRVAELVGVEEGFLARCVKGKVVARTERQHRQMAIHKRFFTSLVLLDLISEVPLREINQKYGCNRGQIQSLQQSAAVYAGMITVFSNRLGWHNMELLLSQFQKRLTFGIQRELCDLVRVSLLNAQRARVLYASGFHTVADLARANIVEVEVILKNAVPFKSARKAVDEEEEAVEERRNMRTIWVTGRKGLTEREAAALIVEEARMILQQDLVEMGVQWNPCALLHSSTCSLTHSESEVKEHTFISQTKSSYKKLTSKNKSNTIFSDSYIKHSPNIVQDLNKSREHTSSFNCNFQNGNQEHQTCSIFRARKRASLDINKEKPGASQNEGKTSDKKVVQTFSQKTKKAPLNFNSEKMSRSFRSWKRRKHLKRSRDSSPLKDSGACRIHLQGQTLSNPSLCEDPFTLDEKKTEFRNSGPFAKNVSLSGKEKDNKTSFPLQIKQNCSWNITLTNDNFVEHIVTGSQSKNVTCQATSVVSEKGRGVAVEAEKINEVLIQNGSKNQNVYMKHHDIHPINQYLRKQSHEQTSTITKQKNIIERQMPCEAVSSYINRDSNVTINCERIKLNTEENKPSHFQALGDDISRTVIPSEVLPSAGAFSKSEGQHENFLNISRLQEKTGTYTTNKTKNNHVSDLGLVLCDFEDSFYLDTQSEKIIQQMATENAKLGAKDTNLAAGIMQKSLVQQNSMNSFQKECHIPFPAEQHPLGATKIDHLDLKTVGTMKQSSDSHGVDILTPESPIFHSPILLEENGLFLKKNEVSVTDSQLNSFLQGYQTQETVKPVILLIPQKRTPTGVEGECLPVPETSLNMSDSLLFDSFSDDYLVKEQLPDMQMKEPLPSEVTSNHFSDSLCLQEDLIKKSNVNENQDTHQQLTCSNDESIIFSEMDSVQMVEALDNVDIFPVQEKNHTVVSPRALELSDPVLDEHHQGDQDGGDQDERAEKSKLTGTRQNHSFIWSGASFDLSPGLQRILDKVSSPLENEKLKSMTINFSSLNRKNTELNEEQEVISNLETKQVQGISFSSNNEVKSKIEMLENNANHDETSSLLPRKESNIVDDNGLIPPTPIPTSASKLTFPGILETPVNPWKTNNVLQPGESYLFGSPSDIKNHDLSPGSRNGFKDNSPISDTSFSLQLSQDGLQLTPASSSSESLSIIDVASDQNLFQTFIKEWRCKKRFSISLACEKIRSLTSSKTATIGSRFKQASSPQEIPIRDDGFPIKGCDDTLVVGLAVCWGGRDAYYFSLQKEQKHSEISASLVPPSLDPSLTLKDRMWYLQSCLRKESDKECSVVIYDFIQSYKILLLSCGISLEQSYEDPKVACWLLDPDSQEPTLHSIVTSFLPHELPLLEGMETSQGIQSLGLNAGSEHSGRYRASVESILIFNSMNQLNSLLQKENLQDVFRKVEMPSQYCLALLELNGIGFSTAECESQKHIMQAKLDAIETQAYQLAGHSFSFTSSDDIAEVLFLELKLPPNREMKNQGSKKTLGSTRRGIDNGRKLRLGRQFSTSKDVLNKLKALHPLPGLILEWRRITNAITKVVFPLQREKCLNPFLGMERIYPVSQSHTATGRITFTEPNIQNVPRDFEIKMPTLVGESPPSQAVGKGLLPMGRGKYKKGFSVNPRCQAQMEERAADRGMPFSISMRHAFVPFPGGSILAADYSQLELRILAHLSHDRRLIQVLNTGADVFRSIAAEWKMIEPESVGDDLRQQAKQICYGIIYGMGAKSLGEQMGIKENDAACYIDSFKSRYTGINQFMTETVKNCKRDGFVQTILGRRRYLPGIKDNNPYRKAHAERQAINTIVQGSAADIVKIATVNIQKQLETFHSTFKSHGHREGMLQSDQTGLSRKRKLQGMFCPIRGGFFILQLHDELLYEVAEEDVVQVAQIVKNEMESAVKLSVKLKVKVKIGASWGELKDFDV
Effect on: enzyme activity
Action: inhibitor
Tested at: 77 µM
Reference: untreated
Quantity: remaining activity
CN(C)CCC(c1ccc(Cl)cc1)c1ccccn1 (centres unmarked): 99.4%
COc1ccc2cc1Oc1ccc(cc1)C[C@H]1c3cc(c(OC)cc3CCN1C)Oc1c(OC)c(OC)cc3c1[C@H](C2)N(C)CC3: 101% and 88.2%
COC[C@H](NC(=O)c1cnc(C)s1)C(=O)N[C@@H](COC)C(=O)N[C@@H](Cc1ccccc1)C(=O)[C@@]1(C)CO1: 95.5%
c1ccc2[nH]c(-c3cscn3)nc2c1: 99.4% and 101%
O=C(O)P(=O)(O)O: 99.5%
CCN1CCN(C(=O)N[C@@H](C(=O)N[C@@H]2C(=O)N3C(C(=O)O)=C(CSc4nnnn4C)CS[C@H]23)c2ccc(O)cc2)C(=O)C1=O: 98.1% and 101%
Cc1[nH]c(/C=C2\C(=O)Nc3ccc(S(=O)(=O)Cc4c(Cl)cccc4Cl)cc32)c(C)c1C(=O)N1CCC[C@@H]1CN1CCCC1: 116%

Sample 2
Compound: CCCCc1c(-c2ccc(O)cc2)[nH]c2nccnc12
Effect on: enzyme activity
Action: inhibitor
Tested at: 0.5 µM
Reference: control
Quantity: remaining activity
Dual specificity protein kinase CLK3 (CLK3, Homo sapiens, UniProt P49761): 121%
Calcium/calmodulin-dependent protein kinase type IV (CAMK4, Homo sapiens, UniProt Q16566): 93.9%
Serine/threonine-protein kinase Nek3 (NEK3, Homo sapiens, UniProt P51956): 103%
Hepatocyte growth factor receptor (MET, Homo sapiens, UniProt P08581): 82.7%
Mitogen-activated protein kinase 11 (MAPK11, Homo sapiens, UniProt Q15759): 103%
Serine/threonine-protein kinase PLK3 (PLK3, Homo sapiens, UniProt Q9H4B4): 90.6%
Cyclin-dependent kinase 1, with cyclin A (CDK1, Homo sapiens, UniProt P06493): 60.3%
Tyrosine-protein kinase TXK (TXK, Homo sapiens, UniProt P42681): 65%
Serine/threonine-protein kinase PAK 3 (PAK3, Homo sapiens, UniProt O75914): 97.7%
G protein-coupled receptor kinase 4 (GRK4, Homo sapiens, UniProt P32298): 101%
Mitogen-activated protein kinase 1 (MAPK1, Homo sapiens, UniProt P28482): 106%
Dual specificity mitogen-activated protein kinase kinase 1 (MAP2K1, Homo sapiens, UniProt Q02750): 94.8%
Rho-associated protein kinase 1 (ROCK1, Homo sapiens, UniProt Q13464): 98.6%

Sample 3
SMILES: COc1ccc(-c2c(Nc3ccccn3)[nH]c3c(C4=CCCCC4)c(-c4ccccc4)nn3c2=O)cc1
Medium: plasma
Route: oral
Quantity: plasma concentration, mean
LC-MS/MS; human; 200 mg twice daily, 24 h: 12700 ng/mL
human patients; 150 mg once daily, 24 h, cycle 1: 4580 ng/mL
LC-MS/MS; human; 50 mg once daily, 8 h, cycle 1: 1590 ng/mL
cancer patients; 100 mg, 0.5 h post-dose, single dose: 86.2 ng/mL
human patients; 150 mg once daily, 8 h, cycle 1: 5280 ng/mL
cancer patients; 150 mg, 8 h post-dose, single dose: 1210 ng/mL

Sample 4
SMILES: C[C@@H]1CN(c2cc(-c3n[nH]c4ccc(OC5(C)CC5)cc34)ncn2)C[C@H](C)O1
Method: competition with immobilised ligand
Quantity: remaining binding
Proto-oncogene tyrosine-protein kinase receptor Ret (RET, Homo sapiens, UniProt P07949, V804M); cell-free assay; 0.1 µM: 97%
Epidermal growth factor receptor (EGFR, Homo sapiens, UniProt P00533, del752-759); binding; 1 µM: 43%
Serine/threonine-protein kinase pim-1 (PIM1, Homo sapiens, UniProt P11309); cell-free assay; 0.1 µM: 100%
Eukaryotic translation initiation factor 2-alpha kinase 1 (EIF2AK1, Homo sapiens, UniProt Q9BQI3); cell-free assay; 0.1 µM: 100%
Tyrosine-protein kinase ABL1, phosphorylated (ABL1, Homo sapiens, UniProt P00519, H396P); cell-free assay; 0.1 µM: 71%
Hepatocyte growth factor receptor (MET, Homo sapiens, UniProt P08581, Y1235D); cell-free assay; 0.1 µM: 92%
Insulin receptor-related protein (INSRR, Homo sapiens, UniProt P14616); cell-free assay; 0.1 µM: 57%
Calcium/calmodulin-dependent protein kinase type IV (CAMK4, Homo sapiens, UniProt Q16566); cell-free assay; 0.1 µM: 78%
Phosphatidylinositol 4,5-bisphosphate 3-kinase catalytic subunit alpha isoform (PIK3CA, Homo sapiens, UniProt P42336, E545K); cell-free assay; 0.1 µM: 65%

A few entries again (sample 4):
Eukaryotic translation initiation factor 2-alpha kinase 1 (EIF2AK1, Homo sapiens, UniProt Q9BQI3); cell-free assay; 0.1 µM: 100%
Hepatocyte growth factor receptor (MET, Homo sapiens, UniProt P08581, Y1235D); cell-free assay; 0.1 µM: 92%
Tyrosine-protein kinase ABL1, phosphorylated (ABL1, Homo sapiens, UniProt P00519, H396P); cell-free assay; 0.1 µM: 71%
Proto-oncogene tyrosine-protein kinase receptor Ret (RET, Homo sapiens, UniProt P07949, V804M); cell-free assay; 0.1 µM: 97%
